# Experimental data of several laboratories.
# Numbers after ± are the reported error.
# Sequence of UniProt O00425 (whole entry, looked up): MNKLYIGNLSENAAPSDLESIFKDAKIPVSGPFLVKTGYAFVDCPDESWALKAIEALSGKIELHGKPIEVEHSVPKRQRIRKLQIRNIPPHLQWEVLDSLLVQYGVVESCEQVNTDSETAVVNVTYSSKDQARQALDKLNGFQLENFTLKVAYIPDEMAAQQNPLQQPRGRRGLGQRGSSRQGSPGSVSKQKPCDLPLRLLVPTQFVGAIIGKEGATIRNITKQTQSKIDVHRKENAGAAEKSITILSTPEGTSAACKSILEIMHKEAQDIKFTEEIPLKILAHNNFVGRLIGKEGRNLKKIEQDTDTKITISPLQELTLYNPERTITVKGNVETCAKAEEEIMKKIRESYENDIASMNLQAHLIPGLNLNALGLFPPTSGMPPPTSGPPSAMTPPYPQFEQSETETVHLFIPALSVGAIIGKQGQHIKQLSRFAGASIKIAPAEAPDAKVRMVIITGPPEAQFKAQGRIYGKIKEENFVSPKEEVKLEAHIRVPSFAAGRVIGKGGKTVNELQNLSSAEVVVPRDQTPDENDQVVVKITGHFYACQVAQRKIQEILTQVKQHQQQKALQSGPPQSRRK
# Sequence of UniProt O96013 (whole entry, looked up): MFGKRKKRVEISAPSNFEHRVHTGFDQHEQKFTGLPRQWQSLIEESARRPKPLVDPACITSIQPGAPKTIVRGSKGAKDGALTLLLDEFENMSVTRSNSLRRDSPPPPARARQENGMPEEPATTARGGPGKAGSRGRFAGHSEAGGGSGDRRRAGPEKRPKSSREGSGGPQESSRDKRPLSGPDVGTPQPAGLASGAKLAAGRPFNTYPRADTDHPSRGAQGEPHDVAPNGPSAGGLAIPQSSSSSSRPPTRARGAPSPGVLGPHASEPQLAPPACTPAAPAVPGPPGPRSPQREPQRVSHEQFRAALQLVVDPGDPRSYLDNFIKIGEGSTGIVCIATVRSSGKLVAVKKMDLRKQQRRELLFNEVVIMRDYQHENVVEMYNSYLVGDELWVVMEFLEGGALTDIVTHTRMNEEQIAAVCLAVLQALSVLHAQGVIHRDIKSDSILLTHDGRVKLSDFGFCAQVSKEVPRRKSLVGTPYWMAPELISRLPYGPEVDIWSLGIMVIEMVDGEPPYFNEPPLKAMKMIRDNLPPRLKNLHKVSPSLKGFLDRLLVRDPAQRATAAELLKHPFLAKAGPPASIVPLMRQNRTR
Compound,tested on,assay,system,setting,scale,endpoint,result
Cc1nc(Nc2ccc(CC(=O)O)cc2)nc(Nc2ccc(F)c(C(F)(F)F)c2)c1C,,,"mice, chronic ethanol plus binge","intraperitoneal, 0.3 mg/kg daily, ethanol diet 4 weeks, dosed last two",reference: vehicle,serum creatinine,no effect
NC(=O)[C@H]1CCN(c2ncnc(N)c2F)C[C@@H]1N1CCC[C@@H](Nc2cc(Cl)cc(C(F)(F)F)c2)C1=O,,,B-cell malignancy patients,"oral, 20.5 mg twice daily, dose",,grade ≥3 lymphopenia,33%
C[C@H]1CN(c2n[nH]c3nc(N[C@H]4CC[C@H](NS(=O)(=O)CCC(F)(F)F)CC4)ncc23)CCO1,"Insulin-like growth factor 2 mRNA-binding protein 3 (IGF2BP3, Homo sapiens, UniProt O00425)","inhibitor, Kinobeads competition profiling",,20 µM,reference: vehicle,relative abundance,1.13
N[C@@H]1c2ccccc2OC12CCN(c1cnc3c(N4CCCc5ncccc54)n[nH]c3n1)CC2,,,patients advanced metastatic solid tumours,"oral, dose not given, dose escalation total",,incidence of any serious TEAE,36.1%
CC(C)[C@@H]1NC(=O)CNC(=O)[C@H](CC(N)=O)NC(=O)[C@H](CCCNC(=N)N)NC(=O)[C@H](Cc2ccc(O)cc2)NC(=O)[C@H](C(C)C)NC(=O)[C@@H](NC(=O)[C@@H](NC(=O)[C@H](CC(N)=O)NC(=O)[C@H](Cc2c[nH]c3ccccc23)NC(=O)[C@H](C)NC(=O)[C@H](Cc2ccccc2)NC(=O)CN)C(C)C)CSSC[C@@H](C(=O)N[C@@H](Cc2cnc[nH]2)C(=O)N[C@@H](CCCNC(=N)N)C(=O)N[C@@H](CCCNC(=N)N)C(=O)N[C@@H](C)C(=O)N[C@@H](CC(N)=O)C(N)=O)NC(=O)[C@H](C(C)C)NC(=O)[C@H](CCCNC(=N)N)NC1=O,,,"ICR mice, blood","intraductal mammary, 10 mg/kg, day 5",,monocytes,3.09 ± 0.4%
N.N.O=C([O-])C1(C(=O)[O-])CCC1.[Pt+2],,measured: non-protein-bound platinum,"human, plasma ultrafiltrate","target AUC 3, from 0, median, Bayesian estimate",,AUC to infinity,38300 ng·h/mL
N=C(N)NCCC[C@@H](NC(=O)[C@@H](N)Cc1ccccc1)C(=O)N[C@@H](Cc1ccccc1)C(=O)N[C@@H](CCCCN)C(N)=O,,,"early Huntington's disease patients, urine","subcutaneous, 5 mg, 5.833 h, mean",,fraction of dose excreted in urine,21.7%
COc1ccnc(C(=O)N[C@H]2COC(=O)[C@H](Cc3ccccc3)[C@@H](OC(=O)C(C)C)[C@H](C)OC2=O)c1OCOC(=O)C(C)C,,soil adsorption,clay soil,"pH 7.6, organic carbon 1.7 %",,Freundlich coefficient KF,148 mL/g
COc1cc2c(Oc3ccc4[nH]c(C)cc4c3F)ccnc2cc1OCC1(N)CC1,,,paediatric recurrent refractory sarcoma,12 mg,,grade 3 Thrombocytopenia,0%
CCc1ccc(CC/C=C/c2ccc3c(c2)C(=O)CC3)cc1,,,"Sprague-Dawley rat, male","oral, 450 mg/kg/day, 14 days",,Basophil percentage,0.27%
CCC(CC)COC(=O)[C@H](C)N[P@](=O)(OC[C@H]1O[C@@](C#N)(c2ccc3c(N)ncnn23)[C@H](O)[C@@H]1O)Oc1ccccc1,,,human cells,48 (unit not given),,CC50,> 10 µM
CSCC[C@H](NC(=O)[C@@H](N)Cc1ccc(O)cc1)C(=O)N[C@@H](Cc1ccccc1)C(=O)N[C@@H](CO)C(=O)N1CCC[C@H]1C(=O)N[C@H](C(=O)N[C@@H](Cc1c[nH]cn1)C(=O)N[C@@H](CCC(N)=O)C(=O)N[C@@H](Cc1ccccc1)C(=O)O)[C@@H](C)O,"HLA class I histocompatibility antigen, A alpha chain, allele A*02:01 (Homo sapiens, UniProt P04439)",binding,,,,IC50,1.47 µM
O=S(=O)(Nc1ccccc1)c1ccc(NC(=S)Nc2ccccc2)cc1,,measured: BUN,"female mouse, blood","oral, 5 mg/kg daily, 14 days",,blood chemistry level,15.2 mg/dL
CCNCCCNC/C=C\CNCCCNCC,,,"human, advanced solid tumours","intravenous, dose not given",reference: patients,"drug-related TEAE, skin disorders",10.9%
CC[C@H](C)[C@H](NC(=O)[C@@H](N)CCCNC(=N)N)C(=O)N[C@@H](Cc1ccccc1)C(=O)NCC(=O)N[C@@H](Cc1c[nH]cn1)C(=O)N1CCC[C@H]1C(=O)N[C@@H](Cc1c[nH]cn1)C(=O)N[C@@H](CC(C)C)C(=O)N[C@@H](Cc1ccccc1)C(=O)O,"HLA class I histocompatibility antigen, A alpha chain, allele A*24:02 (Homo sapiens, UniProt P04439)",binding,,,,IC50,0.099 µM
C[C@]1(CO)Cc2ncn(-c3ccc(C#N)c(Cl)c3)c2C(=O)O1,,,"human, plasma",20 mg multiple doses,reference: dose-proportional exposure,linearity index,106%
Brc1ccc(Oc2cc(Br)c(Br)cc2Br)c(Br)c1,,,whole cow milk,200 nM nominal,,dose fraction in milk fat,82.5%
Cn1ncc(-c2nc(N[C@H]3CC[C@H](N)CC3)ncc2Cl)c1CC1CC1,,HPLC-MS/MS,human patients,"oral, 1 mg, day 5",,AUC,43 ng·h/mL
COc1ccc(N2C(=O)N(c3c(C)cccc3Cl)Cc3cnc(Nc4ccc(C5CCN(C)CC5)cc4OC)nc32)nc1,"Serine/threonine-protein kinase PAK 4 (PAK4, Homo sapiens, UniProt O96013)",kinase activity,,0.5 µM,,inhibition,2%
CC[C@H](C)[C@@H]1NC(=O)[C@@H]2CCCN2C(=O)[C@H](CC(C)C)NC(=O)[C@H](CC(C)C)NC(=O)CNC(=O)[C@@H](NC(=O)[C@@H](NC(=O)[C@H](CC(=O)O)NC(=O)CNC(=O)[C@@H](NC(=O)[C@H](C)NC(=O)CNC(=O)[C@H](CCCCN)NC(=O)[C@H](CC(C)C)NC(=O)[C@H](CC(C)C)NC(=O)[C@H](CCCCN)NC(=O)CNC(=O)[C@@H](NC(=O)[C@@H](N)CC(C)C)C(C)C)C(C)C)C(C)C)CSSC[C@@H](C(=O)O)NC1=O,,"RNA-seq, measured: Cd274","mouse, traumatic brain injury model, frontal cortex and hippocampus",dose not given,reference: TBI alone,log2 fold change,-2.68
CN1CC[C@@H](c2c(O)cc(O)c3c(=O)cc(-c4ccc(C(F)(F)F)cc4Cl)oc23)[C@@H]1CO,,measured: respiratory failure,B-cell malignancies or AML,"oral, 50 mg, grade 3 to 4, continuous dosing",,patients with adverse event,0%
O=C1Nc2cc3[nH]nc(-c4ccncc4)c3cc2CN1Cc1ccccc1,,measured: transaminases increased,patients with advanced solid tumours,"intravenous, dose not given",,patients with grade ≥3 TEAE,7%
OC[C@H]1OC(O)[C@H]([18F])[C@@H](O)[C@@H]1O (stereo partly shown),,"PET/CT, bi-exponential fit","Sprague-Dawley rat, nasal cavity",intranasal,reference: dose,nasal clearance amplitude B,60.7%
C[C@H]1CN(C(=O)CC#N)[C@]12CCN(c1ncnc3[nH]ccc13)C2,,,rat male,"oral, 3 mg/kg repeated daily, 6 months, repeated-dose toxicity study",,Cmax at NOAEL,390 ng/mL
CC(C)(C(=O)NC1C2CC3CC1CC(C(N)=O)(C3)C2)N1CCN(c2ccc(C(F)(F)F)cn2)CC1 (stereo not shown),,,"human, plasma","1 mg once daily, 5 days, median",,dose-normalised free AUC(0-24),0.887 (ng·h/mL)/mg
Clc1ccc(-c2ccccc2)cc1,,,"Sprague-Dawley rat female, serum","inhalation, 35 µg/rat, 24 h",,blood urea nitrogen,11 ± 0.05 mg/dL
C[C@@H]1NC(=O)[C@H](CCCCNC(=O)CO/N=C/C(=O)NCCCC[C@@H]2NC(=O)[C@@H](Cc3ccccc3)NC(=O)[C@H](CC(=O)O)NC(=O)CNC(=O)[C@H](CCCNC(=N)N)NC2=O)NC(=O)CNC(=O)[C@@H]2CCCN2C(=O)[C@H](CCCCNC(=O)CO/N=C/C(=O)NCCCC[C@@H]2NC(=O)[C@@H](Cc3ccccc3)NC(=O)[C@H](CC(=O)O)NC(=O)CNC(=O)[C@H](CCCNC(=N)N)NC2=O)NC(=O)[C@H](CCCCNC(=O)CCNC(=O)CCNC(=O)CCNC(=O)[C@H](CCCCN)NC(=O)[C@H](Cc2ccccc2)NC(=O)CNC(=O)CN2CCCNCCNCCCNCC2)NC(=O)[C@H](CCCCNC(=O)CO/N=C/C(=O)NCCCC[C@@H]2NC(=O)[C@@H](Cc3ccccc3)NC(=O)[C@H](CC(=O)O)NC(=O)CNC(=O)[C@H](CCCNC(=N)N)NC2=O)NC(=O)CNC(=O)[C@@H]2CCCN2C(=O)[C@H](CCCCNC(=O)CO/N=C/C(=O)NCCCC[C@@H]2NC(=O)[C@@H](Cc3ccccc3)NC(=O)[C@H](CC(=O)O)NC(=O)CNC(=O)[C@H](CCCNC(=N)N)NC2=O)NC1=O [copper-64 labelled],,,"normal mice, liver","intravenous, 0.74 MBq, 24 h post-injection",,tissue uptake,23.3 ± 0.56 %ID/g
O=C(Nc1ccccc1)C1CCN(C(=O)Oc2cccnc2)CC1,,,healthy women,"oral, 20 mg, 7 days",,adverse event Headache,0%
CC(C)C(=O)OC[C@H]1O[C@@H](n2ccc(NO)nc2=O)[C@H](O)[C@@H]1O,,,rat fetus dialysate,"5 ng/mL, low concentration, three cycles, with: NHC 25 ng/mL",,freeze-thaw stability,101 ± 1.29%
CO[C@H]1C[C@@H]2CC[C@@H](C)[C@@](O)(O2)C(=O)C(=O)N2CCCC[C@H]2C(=O)O[C@H]([C@H](C)C[C@@H]2CC[C@@H](OC(=O)NCCOCCOCCOCCOCCOCCOCCOCCOCCC(=O)N3CCc4cc(Cn5nc(-c6ccc7oc(N)nc7c6)c6c(N)ncnc65)ccc4C3)[C@H](OC)C2)C[C@@H](O)[C@H](C)/C=C(\C)[C@@H](O)[C@@H](OC)C(=O)[C@H](C)C[C@H](C)/C=C/C=C/C=C/1C,,"phase 1 dose escalation, measured: vomiting",advanced solid tumour patients,"intravenous, 8 mg weekly, grade ≥3",,TRAE incidence,0%
CC[C@H](C)[C@H](NC(=O)[C@H](CCCCN)NC(=O)[C@H](CCC(=O)O)NC(=O)[C@H](CCCCN)NC(=O)[C@H](CO)NC(=O)[C@H](CCCCN)NC(=O)[C@H](CCCNC(=N)N)NC(=O)[C@H](Cc1ccccc1)NC(=O)[C@H](Cc1ccccc1)NC(=O)[C@H](CC(=O)O)NC(=O)CNC(=O)[C@H](CC(C)C)NC(=O)[C@@H](N)CC(C)C)C(=O)NCC(=O)N[C@@H](CCCCN)C(=O)N[C@@H](CCC(=O)O)C(=O)N[C@@H](Cc1ccccc1)C(=O)N[C@@H](CCCCN)C(=O)N[C@@H](CCCNC(=N)N)C(=O)N[C@H](C(=O)N[C@H](C(=O)N[C@@H](CCC(N)=O)C(=O)N[C@@H](CCCNC(=N)N)C(=O)N[C@H](C(=O)N[C@@H](CCCCN)C(=O)N[C@@H](CC(=O)O)C(=O)N[C@@H](Cc1ccccc1)C(=O)N[C@@H](CC(C)C)C(=O)N[C@@H](CCCNC(=N)N)C(=O)N[C@@H](CC(N)=O)C(=O)N[C@@H](CC(C)C)C(=O)N[C@H](C(=O)N1CCC[C@H]1C(=O)N[C@@H](CCCNC(=N)N)C(=O)N[C@H](C(=O)N[C@@H](CCC(=O)O)C(=O)N[C@@H](CO)C(=O)O)[C@@H](C)O)C(C)C)[C@@H](C)CC)C(C)C)[C@@H](C)CC,,LC-MS,50% pooled human serum,"40 µM, 300 min, pH 7.5, 37 °C",reference: 0 h,remaining intact peptide,0%

# Some of these lines once more:
Compound,tested on,assay,system,setting,scale,endpoint,result
Cn1ncc(-c2nc(N[C@H]3CC[C@H](N)CC3)ncc2Cl)c1CC1CC1,,HPLC-MS/MS,human patients,"oral, 1 mg, day 5",,AUC,43 ng·h/mL
COc1ccc(N2C(=O)N(c3c(C)cccc3Cl)Cc3cnc(Nc4ccc(C5CCN(C)CC5)cc4OC)nc32)nc1,"Serine/threonine-protein kinase PAK 4 (PAK4, Homo sapiens, UniProt O96013)",kinase activity,,0.5 µM,,inhibition,2%
